{"data": "Measurements pooled from the literature", "note": "Parts stem from different laboratories: compare values within a part only. Substitutions count along the parent as printed."}
{"data": "Set 1", "target": "RNA binding protein fox-1 homolog 2, RRM domain, GST-SBP tag (RBFOX2, Homo sapiens, UniProt O43251-10, residues 100-194)", "method": "RNA Bind-n-Seq", "molecule type": "RNA", "matrix": "in vitro", "concentration": "365 nM", "notes": "natural RNA segment, single round, ends assumed", "reference": "no-protein control", "direction": "higher = stronger binding", "constant ends, left off below": "GGGAGUUCUACAGUCCGACGAUC … UGGAAUUCUCGGGUGCCAA", "Construct (chain)": "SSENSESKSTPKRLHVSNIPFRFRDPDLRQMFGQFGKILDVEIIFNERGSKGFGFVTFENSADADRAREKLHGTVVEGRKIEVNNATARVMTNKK"}
{"Sequence": "AUUUCCAGGUAUGGGGGUAGCCCCAAAAGGAGGAAUCUCCUAUGGCCAAUAAGGUAUCUUGACUUUAUCAAAGUAGAAGAGAGGGUCACUUCGGAGUCAAAUCAUACACU", "RBNS enrichment (R)": 0.251}
{"Sequence": "UCCCAGCUUCAGUGCUCUUUUCCUUUUUGCCUGAAAUGUUUAUGCUUCUCUGCAGCCAGUCCUCUAACAAAUCUCAAGAACAAAGGUAAGACACUUGGUUUUUGUUUCCA", "RBNS enrichment (R)": 1.29}
{"Sequence": "GCUCUGAAGGAUCCUGGAACCACUGAUUUUGGUUUAUUCCCUCCAGGGUCUAAAGAGAACAAGAGGUGCUAGCUCUUACCAAAACAGAUGGUAGAGAGAGUUGCUGGCUA", "RBNS enrichment (R)": 0.354}
{"Sequence": "UUCAUAAUGAGAUAUAUGUAAUGGAUAGUACAAAGUUUGGAGACUCAACAAAUGCUCUAACCUUCUAGAGACAAAAGUCCUAUUUCUGUUUUCUUUUGUCUUUUUAUUUU", "RBNS enrichment (R)": 0.427}
{"Sequence": "CCAUUGUAAAUACUGCCUCGCCCCUCCUUUGAACUCCAGGGCAUCAGACCUCAAGGGGUAAACUGGACCCACCGGGGAAAGAAAGGGAAGAGGGGAGACCUCUUCUACGA", "RBNS enrichment (R)": 0.26}
{"Sequence": "AUGGCUGUUCGAGAGAAAUCGGAAUAAAAGCCUAAACAGGAACAACUUCAUCACAGUGUUGAUGUUGGACACAUAGAUGGUGAUGGCAAAGGUUUAGAACACAUUAUUUU", "RBNS enrichment (R)": 0.508}
{"Sequence": "CCAGCCAUAGAAGCAGAGCUGAACAGUAUCACAUAGCGAUUCAUGGUCACUCGCAACCUGAGUUCACCACAGCGGGAAUAGCUGUGAGAAACACAAGCAAAACAACAAAA", "RBNS enrichment (R)": 0.244}
{"Sequence": "CUGUAUUUUAUGUAUGCUUUACUGGUAAGUGUGCCAAUAAUAAACUGUGUUAAUGACCAAAGUAAGUAAUCUGGCUGUUGGUGUGAGUACCUGUGAAUCCAUCUGCUCAC", "RBNS enrichment (R)": 2.35}
{"data": "Set 2", "target": "Sal-like protein 4, full length isoform B (SALL4, Homo sapiens, UniProt Q9UJQ4-2, residues 1-616)", "method": "universal PBM", "molecule type": "double-stranded DNA, one strand shown", "matrix": "in vitro", "concentration": "not given", "notes": "8-mer, flanks averaged, mean of replicates", "direction": "higher = stronger binding"}
{"Sequence": "AACACCGT", "E-score": -0.07}
{"Sequence": "GATAAGGC", "E-score": 0.082}
{"Sequence": "ACAGTGAA", "E-score": 0.0695}
{"Sequence": "CACCGACG", "E-score": -0.227}
{"Sequence": "GTTGAAGA", "E-score": 0.184}
{"Sequence": "ACACACTA", "E-score": 0.0795}
{"Sequence": "GTCATTTA", "E-score": 0.195}
{"Sequence": "GGGCTTCA", "E-score": -0.215}
{"data": "Set 3", "target": "RING finger protein unkempt homolog, zinc fingers 1-6, GST-SBP tag (UNK, Homo sapiens, UniProt Q9C0B0, residues 30-357)", "method": "RNA Bind-n-Seq", "molecule type": "RNA", "matrix": "in vitro", "concentration": "not given", "notes": "RNA with constant flanks, ends assumed", "reference": "input RNA pool", "direction": "higher = stronger binding", "constant ends, left off below": "GGGAGUUCUACAGUCCGACGAUC … CAACAGAGGAUUGAGCAUCA", "Construct (chain)": "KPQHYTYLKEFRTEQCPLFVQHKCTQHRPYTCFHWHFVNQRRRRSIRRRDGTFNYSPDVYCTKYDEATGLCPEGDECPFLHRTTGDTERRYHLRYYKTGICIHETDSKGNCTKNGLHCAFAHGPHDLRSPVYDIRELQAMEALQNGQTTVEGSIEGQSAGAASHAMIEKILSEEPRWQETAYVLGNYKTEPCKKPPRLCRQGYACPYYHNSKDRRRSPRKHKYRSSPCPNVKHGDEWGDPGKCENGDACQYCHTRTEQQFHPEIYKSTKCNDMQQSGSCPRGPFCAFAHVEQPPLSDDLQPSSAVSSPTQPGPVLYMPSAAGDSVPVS"}
{"Sequence": "AGCGGAGGCUCAGGAGCCAAGCCCUCAGACGCAGCAUCAGAAGCUGCUCGCCCAGCUACCCGUACUUUGAAUCGCUUCUCAGCCCUUCAACAAGCGGUACCCACAGAAAGCACAGAUAAU", "bound/input enrichment": "0.13 ratio"}
{"Sequence": "UUUGCUAGCCAAGGAAAGUAAAAUGUGAUUUUGUAACUGCACUAAACAUUUGUCAUGCUGCCGUUGCCAGCCCAGAAUAUUAGAAGUUACAAGACUGAUUUAAACCGUCUCUGAUUUAAU", "bound/input enrichment": "0.122 ratio"}
{"Sequence": "AAGAGGAAGAAGGUUAAGUUGGCUGUGCUGAAAUACUAUAAGGUGGAUGAAAAUGGCAAAAUCCGCCGACUUCGUCGAGAGUGUCCUUCUGAUGAAUGUGGUGCUGGAGUUUUCAUGGGA", "bound/input enrichment": "0.261 ratio"}
{"Sequence": "GCUAUGGACACAGAGUUCCCAGGUGUUGUUGUACGGCCGAUCGGUGAAUUUCGAAGCUCCACCGAUUACCAGUAUCAGCUUCUGCGGUGCAAUGUUGAUCUUCUUAAAAUCAUCCAGCUG", "bound/input enrichment": "0.0561 ratio"}
{"Sequence": "CUGAAACCAGCCAAUGUUUUCCUGGAUGGCAAGCAAAACGUCAAGCUUGGAGACUUUGGGCCCGCCCGAAUAUUAAACCAUGACACGAGUUUUGCAAAAACAUUUGUUGGCACACCUUAU", "bound/input enrichment": "0.204 ratio"}
{"Sequence": "UCCACGGGAUUUAACAAAUGUUCAAAGACAUAUAUGCAUCAUUACACUCCUAUAACACAACCGUUUUACUGUCUUAAGAAUCAUGCGUAGCCAGGCAGUGGUGUACACCUUUAAUCCCAG", "bound/input enrichment": "0.282 ratio"}
{"Sequence": "GUAUCGGGGCGGGGUGUGUGUGUGCAUGGAAGAUGCCUGGGCUGUCUUUGCUAUAUGUAAACCGAGCCAUUGGAUCUUUAUUUUUGAUUAAUUUGUUCUGAUUUUUUGGUUUGUUUUUUA", "bound/input enrichment": "0.677 ratio"}
{"Sequence": "UGGUAUGGCCUCGGGCAGACCUAUGAAAUCCUUAAGAUGCCAUUUUACUGCCUUUAUUAUUACCGACGGGCCCACCAGCUUCGACCCAAUGAUUCUCGCAUGCUGGUUGCUUUAGGAGAA", "bound/input enrichment": "0.193 ratio"}
{"data": "Mixed results", "starting sequence": "viral docking peptide; KGVKRKLFAEDSS"}
{"Variant": "S13A", "target": "CCNE1, cyclin fold, Cln2 fusion (human)", "assay": "yeast growth competition, sequencing", "test system": "yeast", "setting": "strong parent motif", "scale": "reference: not given, higher = stronger binding", "endpoint": "normalised enrichment score", "value": 8.43}
{"note": "Some of these lines once more (set 2):"}
{"Sequence": "CACCGACG", "E-score": -0.227}
{"Sequence": "GATAAGGC", "E-score": 0.082}
